Assay results gathered from unrelated publications.
Numbered parts are unrelated; each lists some results of a single study. Substitutions count along the parent as printed.

Series 1 — technique: protein-binding microarray; molecule type: double-stranded DNA, one strand shown; medium: in vitro; tested at: 250 nM; notes: 60-bp whole probe; together with: salmon DNA 0.4 mg/ml; reference: random background probes; reading: higher = stronger binding; endpoint: log fluorescence; all sequences stand within: GCCTAGCAC … GTCTTGATTCGCTTGACGCTGCTG
Target: Interferon regulatory factor 7, full length, phosphomimetic (IRF7, Homo sapiens, UniProt Q92985, residues 1-503, S101K/S471D/S472D/S475D/S476D/S477D/S483D/S484D/S487D)
Construct (chain): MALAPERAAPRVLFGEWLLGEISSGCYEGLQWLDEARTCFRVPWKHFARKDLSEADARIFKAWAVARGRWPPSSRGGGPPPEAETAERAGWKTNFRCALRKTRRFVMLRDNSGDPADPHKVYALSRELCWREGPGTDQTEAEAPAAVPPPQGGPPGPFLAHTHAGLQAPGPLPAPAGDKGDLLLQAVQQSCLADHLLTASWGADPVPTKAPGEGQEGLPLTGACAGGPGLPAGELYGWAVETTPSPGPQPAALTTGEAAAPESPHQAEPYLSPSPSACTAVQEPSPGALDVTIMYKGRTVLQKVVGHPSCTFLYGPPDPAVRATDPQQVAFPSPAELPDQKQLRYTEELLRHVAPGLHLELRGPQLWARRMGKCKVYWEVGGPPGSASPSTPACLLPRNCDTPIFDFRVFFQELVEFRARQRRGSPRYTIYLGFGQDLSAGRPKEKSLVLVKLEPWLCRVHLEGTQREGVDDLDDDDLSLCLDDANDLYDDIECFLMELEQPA
TCATGTTTGGTTCTTATACTGTGCTAG: 0.878 z-score
GACGAACTGGGGTATCGAGCCGTGCTA: -0.775 z-score
GACGATTTCTGTCTCGAGACGTGCTAG: 0.46 z-score
CTAGTTCTGCTTTGCCTTCAGTGCTAG: 3.62 z-score
GACGATATCGGGACTGGAGACGTGCTA: -0.53 z-score
TCAAATTTATAAATAAAACTGTGCTAG: 0.241 z-score
GACGGATTGGGGTTTCGGGACGTGCTA: 1.18 z-score
AGATACCTTTAACAGTGCCTGTGCTAG: -0.199 z-score
TTAGGACTGCTTATACTTTAGTGCTAG: -0.145 z-score
GCCGGACTGGGTTTCGGGACGTGCTAG: 1.69 z-score
TTTGATTTCAGTATCGATTAGTGCTAG: 1.41 z-score
TCAGGTATCGGGTATCGGTTAGTGCTA: 1.8 z-score
TTAGATTCCAGTTTCGATTTGTGCTAG: 13.4 z-score
GACGGACTGCACACTGGGGACGTGCTA: -0.775 z-score
GACGATTTCAGTTCCGAGAGGTGCTAG: 0.39 z-score
TTAGGTATCCTTTTCCTTTCGTGCTAG: 2.22 z-score
TTAGGTATCGGACTGGGTTAGTGCTAG: 0.15 z-score
TCAAGAAAAAGAAAAAAAACTGTGCTA: 0.34 z-score
TTAGATTTCAGTGTCGATTAGTGCTAG: 0.102 z-score

Series 2 — target: CREB3L3, bZIP domain (human); technique: DHFR protein complementation; medium: yeast; reference: wild-type JUN-FOS pair; reading: higher = stronger binding; endpoint: binding fitness
Notes: single substitutions, most at no-binding floor
Parent: JUN, bZIP domain (human); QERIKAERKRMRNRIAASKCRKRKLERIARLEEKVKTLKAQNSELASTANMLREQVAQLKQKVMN; partner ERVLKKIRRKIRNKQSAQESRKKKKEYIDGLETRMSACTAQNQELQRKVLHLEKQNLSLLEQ
A40L: -1.5 natural log
N42G: -1.46 natural log
A57H: -1.48 natural log
A46P: -1.52 natural log
L31D: -1.42 natural log
E33H: -1.5 natural log
V35S: -1.43 natural log
R53M: -1.53 natural log
L45R: -1.48 natural log
L52Y: -1.5 natural log
A49C: -1.62 natural log
S47V: -1.27 natural log
A40R: -1.41 natural log
I28F: -1.43 natural log
E54Q: -1.48 natural log
T48Q: -1.35 natural log
A29T: -1.55 natural log
I28H: -1.04 natural log
K39H: -1.45 natural log
T48G: -1.39 natural log
E33Q: -1.36 natural log
K36H: -1.48 natural log
R30K: -1.37 natural log
L31T: -1.53 natural log
E32A: -1.2 natural log

Series 3 — technique: RNA Bind-n-Seq; molecule type: RNA; medium: in vitro; tested at: 365 nM; reference: no-protein control; reading: higher = stronger binding; endpoint: RBNS enrichment (R)
Target: RNA binding protein fox-1 homolog 2, RRM domain, GST-SBP tag (RBFOX2, Homo sapiens, UniProt O43251-10, residues 100-194)
Notes: natural RNA segment, single round, ends assumed
Residues (chain): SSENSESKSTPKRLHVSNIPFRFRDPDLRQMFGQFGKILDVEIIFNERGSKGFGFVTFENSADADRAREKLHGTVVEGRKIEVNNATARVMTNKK
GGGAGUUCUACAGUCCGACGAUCUGAUACGGAGUCGUCUUGUCUGCAUUUUGGCCUCAGCAUCAUUAACUUCAAAGCUUUAUUCUGUCUGCCUGAGAGGAUCCAUGGAAGAUGAUUCUCCCAAAAAGCAGAAAUGGAAUUCUCGGGUGCCAA: 0.802
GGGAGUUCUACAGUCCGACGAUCGUGCUAUGGAAACAAUGAAGAGAAACGGGGAUUUCAGAAGAAAAUUGUAACCAAAUUCAUAUACUUUGUAUAAGUUUUUGAUAUCAUGAUCACAGGUGAUUCACACGUACUGGAAUUCUCGGGUGCCAA: 0.509
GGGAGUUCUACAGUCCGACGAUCCCUAAAUUAAAAAUGCCAAAUAUAUCAUGCCUCCAUCCUUUAUACUUCUAAAAUAAAAUCUCUAGUCCAGACAUAUUUGACAGUAUUGUUUGUCUGAAUGUGAAAUAUCCUGGAAUUCUCGGGUGCCAA: 2.1
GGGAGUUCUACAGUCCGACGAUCAUUCAGACAAGAAAACUUUGCUUAAAAGAUUUCAUGUGUGGGAACCACAGUUCCUGGCUGCCUUUCUCCUGUGUAUGUGUAAAUUCCUUAAUAAAUAUUGCAGGGAAGGAUGGAAUUCUCGGGUGCCAA: 0.647
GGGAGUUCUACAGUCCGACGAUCGUUGAGGGUUCUUGCUUAAUUUAGAUCAAGUAUAAAAUUUGUAUGACUUCAAGUCUCAUUUUAUCUGAAAGGUUUUUUUCUCAUUUAAUCUGAUGUGGCAUUUUCGUCAUUGGAAUUCUCGGGUGCCAA: 0.493
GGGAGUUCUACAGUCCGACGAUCCUCACCGCCCACAACCCUAUCGCUGGAGCUGUGAGAGGUUUUCUACCAGCCAGGUCUUAUGUUCCCAGGCCCUGUCUUCUGGAAAGCAUUACUGGGAAGUGGACACUAGGUGGAAUUCUCGGGUGCCAA: 0.303
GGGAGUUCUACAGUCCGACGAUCGCUUCCUCUUCCGGGGCUUCUGGGUGGGCAAACAAGGAAUAAAGGUGAUUCUUGGCUGUGGCCCACUUCCCUUGGGUGCUGUGGCGAGUACUUACUAAUCCUGGAUGGAGUGGAAUUCUCGGGUGCCAA: 0.608
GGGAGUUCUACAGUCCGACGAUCAGAUUCUAAUGGAUAGGAUUUAGAGAUGUGUUCUGUGUUCUUGACCAGUGAAGUAUGCUCUUGGGUCUUUGGCAAAGCUGGAAAGAGAAAGGGCCUCCUUGUUCUUUCCCUGGAAUUCUCGGGUGCCAA: 0.995

Series 4 — technique: RNA Bind-n-Seq; molecule type: RNA; medium: in vitro; tested at: 200 nM; notes: whole 134-nt RNA, ends assumed; together with: 150 mM LiCl; reference: input library; reading: higher = stronger binding; endpoint: log2 enrichment; all molecules: 7-deaza-guanosine replaces G
Target: Fragile X messenger ribonucleoprotein 1, C-terminal low-complexity region (Fmr1, Mus musculus, UniProt P35922)
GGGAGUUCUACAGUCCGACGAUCUCCUGUGCUACACAUCGUAUGUACCGAAUCGGGGAGGGGUUUUUUUGGGGAAAAAGGGGAAAGUAUUAUGUUACGCCGUUCGGAUCUGCAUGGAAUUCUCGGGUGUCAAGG: -0.427
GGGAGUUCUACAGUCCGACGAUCAAGUCCUGUGCUACACAUCGUAUGUACCGAAUCGGGGUGGGGAGGGGAAAAAGGGGAAAGUAUUAUGUUACGCCGUUCGGAUCUGCACUUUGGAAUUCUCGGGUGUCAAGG: 0.492
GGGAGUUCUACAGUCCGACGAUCCUCAAGUCCUGUGCUACACAUCGUAUGUACCGAAUCGGUUUUUUUGGUGGUGGAAAGUAUUAUGUUACGCCGUUCGGAUCUGCACUUCCAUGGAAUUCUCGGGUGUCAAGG: -0.0384
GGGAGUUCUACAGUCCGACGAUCAGUCCUGUGCUACACAUCGUAUGUACCGAAUCGGGUUUUUUUGGGUGGGUUUUUGGGAAAGUAUUAUGUUACGCCGUUCGGAUCUGCACUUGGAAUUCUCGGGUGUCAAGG: -1.74
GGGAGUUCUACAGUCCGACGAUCGUCCUGUGCUACACAUCGUAUGUACCGAAUCAAAUUUUUUUAAAUUUAAACCCCCAAAAAAGUAUUAUGUUACGCCGUUCGGAUCUGCACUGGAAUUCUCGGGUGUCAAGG: 0.313
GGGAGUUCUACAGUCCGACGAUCUAACUUUAGAGGAGGAUCUGAUGGACAUGGCAGUGGACGUGGAUUUGGGGAUGGCUAUAAUGGGUAUGGAGGAGGACCUGGAGGUGGCAAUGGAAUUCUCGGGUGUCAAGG: -0.151
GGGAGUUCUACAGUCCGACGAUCGUCCUGUGCUACACAUCGUAUGUACCGAAUCGGGGCCCCGGGGCCCCGGGGCCCCGGGAAAGUAUUAUGUUACGCCGUUCGGAUCUGCACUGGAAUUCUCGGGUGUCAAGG: 0.455
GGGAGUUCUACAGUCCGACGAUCCAAGUCCUGUGCUACACAUCGUAUGUACCGAAUCGGGAAGGGGAAGGGGAAGGGGAAAGUAUUAUGUUACGCCGUUCGGAUCUGCACUUCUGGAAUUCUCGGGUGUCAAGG: -0.312

Some of these lines once more (series 1):
GACGGACTGCACACTGGGGACGTGCTA: -0.775 z-score
TCAAGAAAAAGAAAAAAAACTGTGCTA: 0.34 z-score
TCAAATTTATAAATAAAACTGTGCTAG: 0.241 z-score
GACGGATTGGGGTTTCGGGACGTGCTA: 1.18 z-score
TTAGATTCCAGTTTCGATTTGTGCTAG: 13.4 z-score
TTTGATTTCAGTATCGATTAGTGCTAG: 1.41 z-score
GACGATTTCTGTCTCGAGACGTGCTAG: 0.46 z-score
